{"data": "Experimental data of several laboratories", "kasA": "3-oxoacyl-[acyl-carrier-protein] synthase 1 (kasA, Mycobacterium tuberculosis, UniProt P9WQD9)", "note": "Values joined by “and” are separate records of one study, mostly repeats; a detail may differ.", "chain of UniProt Q01959 (whole entry, unmodified, looked up)": "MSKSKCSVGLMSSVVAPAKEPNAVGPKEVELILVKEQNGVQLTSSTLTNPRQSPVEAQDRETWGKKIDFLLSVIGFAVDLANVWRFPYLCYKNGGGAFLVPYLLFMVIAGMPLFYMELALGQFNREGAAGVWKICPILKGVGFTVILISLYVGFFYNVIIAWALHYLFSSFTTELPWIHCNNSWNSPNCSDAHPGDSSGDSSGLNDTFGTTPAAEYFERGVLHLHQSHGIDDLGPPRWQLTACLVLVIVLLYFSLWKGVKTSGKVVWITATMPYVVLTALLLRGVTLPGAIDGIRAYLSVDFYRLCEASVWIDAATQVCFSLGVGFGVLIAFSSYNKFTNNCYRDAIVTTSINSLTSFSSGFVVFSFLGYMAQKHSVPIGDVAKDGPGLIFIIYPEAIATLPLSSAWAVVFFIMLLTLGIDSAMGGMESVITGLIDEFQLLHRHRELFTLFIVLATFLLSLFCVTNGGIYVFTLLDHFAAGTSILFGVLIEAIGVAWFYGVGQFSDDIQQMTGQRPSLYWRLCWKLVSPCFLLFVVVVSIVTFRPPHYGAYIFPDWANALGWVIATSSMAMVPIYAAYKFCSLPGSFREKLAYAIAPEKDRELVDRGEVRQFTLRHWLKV", "chain of UniProt P9WQD9 (whole entry, looked up)": "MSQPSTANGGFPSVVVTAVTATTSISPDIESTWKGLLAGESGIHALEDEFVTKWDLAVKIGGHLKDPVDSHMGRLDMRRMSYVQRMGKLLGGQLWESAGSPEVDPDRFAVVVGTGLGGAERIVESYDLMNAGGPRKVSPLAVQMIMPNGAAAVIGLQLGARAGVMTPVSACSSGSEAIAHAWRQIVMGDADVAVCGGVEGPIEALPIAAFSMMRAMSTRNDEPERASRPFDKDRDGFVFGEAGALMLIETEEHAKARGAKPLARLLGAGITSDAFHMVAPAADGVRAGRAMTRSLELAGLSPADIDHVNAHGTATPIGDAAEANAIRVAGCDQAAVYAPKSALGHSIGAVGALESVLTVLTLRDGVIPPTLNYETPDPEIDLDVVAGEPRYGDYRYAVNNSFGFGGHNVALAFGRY", "chain of UniProt P68402 (whole entry, looked up)": "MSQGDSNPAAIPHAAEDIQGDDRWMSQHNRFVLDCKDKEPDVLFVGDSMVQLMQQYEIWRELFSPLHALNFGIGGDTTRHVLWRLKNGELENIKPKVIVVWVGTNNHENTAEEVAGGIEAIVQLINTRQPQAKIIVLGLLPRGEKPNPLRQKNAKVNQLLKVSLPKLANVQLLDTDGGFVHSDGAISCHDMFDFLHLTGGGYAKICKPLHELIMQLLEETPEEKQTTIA", "chain of UniProt P49685 (whole entry, looked up)": "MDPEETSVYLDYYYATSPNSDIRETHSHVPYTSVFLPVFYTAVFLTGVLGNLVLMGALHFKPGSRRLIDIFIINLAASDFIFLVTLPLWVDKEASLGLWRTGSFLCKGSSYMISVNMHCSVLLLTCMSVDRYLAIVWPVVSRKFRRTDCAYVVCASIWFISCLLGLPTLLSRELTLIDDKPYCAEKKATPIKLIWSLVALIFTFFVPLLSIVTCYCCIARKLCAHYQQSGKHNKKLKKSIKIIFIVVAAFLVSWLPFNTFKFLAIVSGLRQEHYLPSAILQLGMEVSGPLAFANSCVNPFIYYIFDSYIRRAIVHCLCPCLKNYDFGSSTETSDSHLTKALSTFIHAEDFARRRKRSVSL", "chain of UniProt Q92731 (whole entry, looked up)": "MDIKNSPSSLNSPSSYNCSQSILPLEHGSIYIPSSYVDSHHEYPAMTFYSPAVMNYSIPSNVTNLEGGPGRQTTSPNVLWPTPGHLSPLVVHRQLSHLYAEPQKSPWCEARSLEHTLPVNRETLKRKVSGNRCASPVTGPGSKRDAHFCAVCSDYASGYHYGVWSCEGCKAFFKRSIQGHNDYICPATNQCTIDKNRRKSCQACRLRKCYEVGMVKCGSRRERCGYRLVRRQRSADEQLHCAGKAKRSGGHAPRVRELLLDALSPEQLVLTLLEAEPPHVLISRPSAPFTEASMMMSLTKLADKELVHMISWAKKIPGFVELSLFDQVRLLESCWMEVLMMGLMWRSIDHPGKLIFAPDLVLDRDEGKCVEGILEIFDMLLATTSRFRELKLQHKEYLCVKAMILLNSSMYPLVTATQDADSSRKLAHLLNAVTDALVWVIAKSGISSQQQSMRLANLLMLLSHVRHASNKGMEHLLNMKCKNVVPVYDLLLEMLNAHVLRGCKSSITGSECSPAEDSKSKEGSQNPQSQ", "chain of UniProt P34995 (whole entry, looked up)": "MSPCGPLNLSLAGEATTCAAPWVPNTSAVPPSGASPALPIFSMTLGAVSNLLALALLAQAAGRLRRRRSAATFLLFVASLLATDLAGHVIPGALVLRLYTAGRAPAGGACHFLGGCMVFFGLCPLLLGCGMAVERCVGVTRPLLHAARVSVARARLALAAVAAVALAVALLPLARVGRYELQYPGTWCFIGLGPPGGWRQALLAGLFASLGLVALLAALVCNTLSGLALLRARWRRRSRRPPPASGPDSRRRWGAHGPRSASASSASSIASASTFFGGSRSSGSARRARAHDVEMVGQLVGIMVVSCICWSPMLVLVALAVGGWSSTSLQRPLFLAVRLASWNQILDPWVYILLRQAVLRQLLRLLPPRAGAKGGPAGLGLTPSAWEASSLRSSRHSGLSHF", "chain of UniProt P51812 (whole entry, looked up)": "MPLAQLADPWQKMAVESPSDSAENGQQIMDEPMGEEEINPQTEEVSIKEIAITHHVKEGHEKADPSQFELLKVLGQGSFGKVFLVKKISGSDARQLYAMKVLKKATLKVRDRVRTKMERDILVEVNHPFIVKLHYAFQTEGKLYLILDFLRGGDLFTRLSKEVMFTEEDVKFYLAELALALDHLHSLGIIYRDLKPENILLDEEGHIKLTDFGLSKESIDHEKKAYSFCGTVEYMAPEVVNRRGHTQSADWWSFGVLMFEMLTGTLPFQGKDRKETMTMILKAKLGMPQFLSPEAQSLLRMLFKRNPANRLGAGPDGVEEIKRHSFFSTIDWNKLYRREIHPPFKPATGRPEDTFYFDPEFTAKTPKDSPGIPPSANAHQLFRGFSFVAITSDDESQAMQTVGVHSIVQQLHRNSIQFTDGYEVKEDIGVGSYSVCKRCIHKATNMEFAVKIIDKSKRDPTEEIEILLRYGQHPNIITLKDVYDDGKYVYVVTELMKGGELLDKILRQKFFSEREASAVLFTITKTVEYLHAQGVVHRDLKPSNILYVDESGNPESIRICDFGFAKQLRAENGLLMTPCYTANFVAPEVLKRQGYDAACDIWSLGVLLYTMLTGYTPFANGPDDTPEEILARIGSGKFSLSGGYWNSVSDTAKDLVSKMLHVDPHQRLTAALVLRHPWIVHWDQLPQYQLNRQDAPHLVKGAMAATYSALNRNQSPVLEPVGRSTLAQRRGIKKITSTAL", "chain of UniProt Q99623 (whole entry, looked up)": "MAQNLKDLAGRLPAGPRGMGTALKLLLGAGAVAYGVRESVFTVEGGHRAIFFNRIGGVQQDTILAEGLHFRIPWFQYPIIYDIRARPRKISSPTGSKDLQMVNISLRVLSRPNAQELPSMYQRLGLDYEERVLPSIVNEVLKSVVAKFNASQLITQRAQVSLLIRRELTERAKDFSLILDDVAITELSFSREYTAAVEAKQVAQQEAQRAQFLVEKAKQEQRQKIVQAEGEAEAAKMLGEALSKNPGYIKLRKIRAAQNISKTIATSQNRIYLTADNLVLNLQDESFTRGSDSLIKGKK", "chain of UniProt Q15722 (whole entry, looked up)": "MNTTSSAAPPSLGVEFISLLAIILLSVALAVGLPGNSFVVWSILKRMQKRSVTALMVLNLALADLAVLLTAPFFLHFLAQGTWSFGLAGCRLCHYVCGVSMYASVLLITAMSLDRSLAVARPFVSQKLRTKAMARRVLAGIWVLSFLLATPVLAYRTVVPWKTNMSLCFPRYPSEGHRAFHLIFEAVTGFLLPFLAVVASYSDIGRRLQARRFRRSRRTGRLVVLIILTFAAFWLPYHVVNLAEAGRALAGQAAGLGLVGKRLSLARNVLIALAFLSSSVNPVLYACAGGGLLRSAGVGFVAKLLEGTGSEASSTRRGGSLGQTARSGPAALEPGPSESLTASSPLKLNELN", "chain of UniProt Q9H093 (whole entry, looked up)": "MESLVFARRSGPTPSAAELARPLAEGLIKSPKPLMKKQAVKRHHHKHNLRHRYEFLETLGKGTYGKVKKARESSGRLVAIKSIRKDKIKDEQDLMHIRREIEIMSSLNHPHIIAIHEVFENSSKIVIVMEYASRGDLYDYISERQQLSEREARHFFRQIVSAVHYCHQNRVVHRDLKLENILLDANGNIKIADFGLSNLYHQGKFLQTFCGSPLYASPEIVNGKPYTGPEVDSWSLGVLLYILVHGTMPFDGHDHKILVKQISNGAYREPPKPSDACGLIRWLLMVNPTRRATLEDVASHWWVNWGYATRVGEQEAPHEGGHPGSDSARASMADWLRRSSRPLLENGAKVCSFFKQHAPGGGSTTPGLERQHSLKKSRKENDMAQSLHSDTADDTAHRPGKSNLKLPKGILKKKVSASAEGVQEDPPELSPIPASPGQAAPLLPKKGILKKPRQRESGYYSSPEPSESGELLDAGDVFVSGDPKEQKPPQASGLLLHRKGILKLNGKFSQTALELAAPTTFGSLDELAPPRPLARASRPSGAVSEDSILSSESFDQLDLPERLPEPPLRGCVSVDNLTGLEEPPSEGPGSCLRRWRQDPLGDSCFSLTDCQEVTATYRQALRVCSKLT"}
{"Structure (SMILES)": "COc1ccc2nc3cc(Cl)ccc3c(Nc3cc(CN4CCCC4)c(O)c(CN4CCCC4)c3)c2n1", "target or system": "kasA", "test": "thermal stabilization, nanoDSF", "conditions": "100 µM", "measurement": "ΔTm", "result": "-0.04 °C"}
{"Structure (SMILES)": "COc1ccc(N2C(=O)N(c3c(C)cccc3Cl)Cc3cnc(Nc4ccc(C5CCN(C)CC5)cc4OC)nc32)nc1", "target or system": "NUAK2 (Homo sapiens, UniProt Q9H093)", "test": "kinase activity", "conditions": "0.5 µM", "measurement": "inhibition", "result": "16%"}
{"Structure (SMILES)": "Oc1cc(Cl)ccc1Oc1ccc(Cl)cc1Cl", "target or system": "kasA", "test": "thermal stabilization, nanoDSF", "conditions": "100 µM", "measurement": "ΔTm", "result": "3.77 °C"}
{"Structure (SMILES)": "CN1CCN(c2cc(-c3ccncc3)c(-c3ccc4ccccc4c3)nn2)CC1", "target or system": "LTB4R (Homo sapiens, UniProt Q15722)", "test": "agonist, FLIPR", "conditions": "12.5 µM", "measurement": "activation", "result": "-1.5%"}
{"Structure (SMILES)": "O=C(Nc1cnccc1Cl)N1CCN(Cc2ccc3c(c2)OC(F)(F)O3)CC1", "target or system": "ESR2 (Homo sapiens, UniProt Q92731)", "test": "radioligand binding", "conditions": "10 µM, added: [3H]estradiol", "measurement": "inhibition of binding", "result": "-2%"}
{"Structure (SMILES)": "CCc1nc2ccc(Cl)cn2c1C(=O)Nc1cccc(O)c1F", "target or system": "kasA", "test": "thermal stabilization, nanoDSF", "conditions": "100 µM", "measurement": "ΔTm", "result": "0.04 °C"}
{"Structure (SMILES)": "c1ccc2cc([C@]34CNC[C@H]3C4)ccc2c1", "target or system": "SLC6A3 (Homo sapiens, UniProt Q01959, V152A)", "test": "inhibitor, [3H]dopamine uptake", "conditions": "100 µM, V152A mutant", "scale": "relative to: no inhibitor", "measurement": "dopamine uptake", "result": "0.296% and -0.00638% and 0.535%"}
{"Structure (SMILES)": "Oc1ccc2c3c1O[C@H]1[C@@H](O)CC[C@@]4(O)[C@@H](C2)N(CC2CCC2)CC[C@]314", "target or system": "G-protein coupled receptor 15 (Homo sapiens, UniProt P49685)", "test": "β-arrestin recruitment, TANGO luminescence, refers to: GPR15", "conditions": "concentration not given", "scale": "relative to: basal luminescence", "measurement": "log2 fold change", "result": -0.061}
{"Structure (SMILES)": "[2H]c1c([2H])c([C@]2([2H])CCCN2C(=O)C(C)(C)Oc2ccc3cn[nH]c3c2)c([2H])c([2H])c1C([2H])([2H])[2H]", "target or system": "PRKD2 (Homo sapiens, UniProt Q9BZL6)", "test": "KINOMEscan", "conditions": "1 µM", "scale": "relative to: DMSO control", "measurement": "remaining binding", "result": "86%"}
{"Structure (SMILES)": "O=C(c1ccc(Cl)cc1)N1CCN2C(=O)N(OC(=O)N3CCOc4ccccc43)C(=O)C2C1 (stereo not drawn)", "target or system": "Platelet-activating factor acetylhydrolase IB subunit alpha2 (Homo sapiens, UniProt P68402)", "test": "enzyme activity, inhibitor, MS-based ABPP", "system": "SW-620 in situ", "conditions": "10 µM, 2 h, 37 °C", "scale": "relative to: compound over DMSO, lower = stronger inhibition", "measurement": "median ratio", "result": 1.13}
{"Structure (SMILES)": "CCN1CCN(Cc2ccc(NC(=O)c3ccc(C)c(/C=C/c4cnc5[nH]ccc5c4OC)c3)cc2C(F)(F)F)CC1", "target or system": "RPS6KA3 (Homo sapiens, UniProt P51812)", "system": "A-375", "conditions": "concentration not given", "measurement": "inhibition", "result": "-27.9%"}
{"Structure (SMILES)": "CC[C@H](C)[C@H](NC(=O)CNC(=O)[C@@H](N)CCCCN)C(=O)N[C@@H](CC(C)C)C(=O)N[C@@H](CCCCN)C(=O)N[C@@H](CCCNC(=N)N)C(=O)N[C@@H](CCC(=O)O)C(=O)N[C@@H](CCCCN)C(=O)N[C@@H](CCCNC(=N)N)C(=O)N[C@@H](CC(C)C)C(=O)N[C@@H](CCCNC(=N)N)C(=O)N[C@@H](CCCNC(=N)N)C(=O)N[C@@H](CCCCN)C(=O)N[C@@H](CC(N)=O)C(=O)N[C@H](C(=O)N[C@@H](Cc1c[nH]cn1)C(=O)N[C@@H](Cc1c[nH]c2ccccc12)C(=O)N1CCC[C@H]1C(=O)N[C@@H](CCC(=O)O)C(=O)N[C@@H](CCC(=O)O)C(=O)NCC(=O)N[C@@H](CCCCN)C(=O)N[C@@H](CC(C)C)C(=O)N[C@@H](CCCNC(=N)N)C(=O)N[C@@H](CCC(=O)O)C(=O)N[C@@H](Cc1ccc(O)cc1)C(=O)N[C@@H](Cc1ccccc1)C(=O)N[C@@H](Cc1ccc(O)cc1)C(=O)N[C@@H](Cc1ccccc1)C(=O)N[C@@H](CCC(=O)O)C(=O)N[C@@H](CC(C)C)C(=O)N[C@@H](CC(=O)O)C(=O)N[C@@H](CCC(=O)O)C(=O)N[C@@H](C)C(=O)N[C@@H](CCC(=O)O)C(=O)N[C@@H](CCCNC(=N)N)C(=O)N[C@H](C(=O)N[C@@H](CC(N)=O)C(=O)N[C@H](C(=O)O)C(C)C)C(C)C)C(C)C", "target or system": "HeLa and HEK-293T cells", "test": "phosphatase bead binding, competitive inhibitor, PIB pulldown iBAQ LC-MS/MS, refers to: FGFR1OP2", "conditions": "concentration not given", "scale": "relative to: untreated control", "measurement": "log2 fold change", "result": -0.0663}
{"Structure (SMILES)": "O=C(Nc1cccnn1)N1CCC(=Cc2cccc(Oc3ccc(C(F)(F)F)cn3)c2)CC1", "target or system": "PTGER1 (Homo sapiens, UniProt P34995)", "test": "binding, refers to: EP1", "conditions": "50 µM, human, added: [3H]prostaglandin E2", "measurement": "inhibition", "result": "41%"}
{"Structure (SMILES)": "CC[C@H](C)[C@H](NC(=O)CNC(=O)[C@@H](N)CCCCN)C(=O)N[C@@H](CC(C)C)C(=O)N[C@@H](CCCCN)C(=O)N[C@@H](CCCNC(=N)N)C(=O)N[C@@H](CCC(=O)O)C(=O)N[C@@H](CCCCN)C(=O)N[C@@H](CCCNC(=N)N)C(=O)N[C@@H](CC(C)C)C(=O)N[C@@H](CCCNC(=N)N)C(=O)N[C@@H](CCCNC(=N)N)C(=O)N[C@@H](CCCCN)C(=O)N[C@@H](CC(N)=O)C(=O)N[C@H](C(=O)N[C@@H](Cc1c[nH]cn1)C(=O)N[C@@H](Cc1c[nH]c2ccccc12)C(=O)N1CCC[C@H]1C(=O)N[C@@H](CCC(=O)O)C(=O)N[C@@H](CCC(=O)O)C(=O)NCC(=O)N[C@@H](CCCCN)C(=O)N[C@@H](CC(C)C)C(=O)N[C@@H](CCCNC(=N)N)C(=O)N[C@@H](CCC(=O)O)C(=O)N[C@@H](Cc1ccccc1)C(=O)N[C@@H](Cc1ccccc1)C(=O)N[C@@H](Cc1ccccc1)C(=O)N[C@@H](Cc1ccccc1)C(=O)N[C@@H](CCC(=O)O)C(=O)N[C@@H](CC(C)C)C(=O)N[C@@H](CC(=O)O)C(=O)N[C@@H](CCC(=O)O)C(=O)N[C@@H](C)C(=O)N[C@@H](CCC(=O)O)C(=O)N[C@@H](CCCNC(=N)N)C(=O)N[C@H](C(=O)N[C@@H](CC(N)=O)C(=O)N[C@H](C(=O)O)C(C)C)C(C)C)C(C)C", "target or system": "HeLa and HEK-293T cells", "test": "phosphatase bead binding, competitive inhibitor, PIB pulldown iBAQ LC-MS/MS, refers to: PPP6R2", "conditions": "concentration not given", "scale": "relative to: untreated control", "measurement": "log2 fold change", "result": 0.0645}
{"Structure (SMILES)": "C[C@H]1CN(c2n[nH]c3nc(N[C@H]4CC[C@H](NS(=O)(=O)CCC(F)(F)F)CC4)ncc23)CCO1", "target or system": "Prohibitin-2 (PHB2, Homo sapiens, UniProt Q99623)", "test": "inhibitor, Kinobeads competition profiling", "conditions": "0.8 µM", "scale": "relative to: vehicle", "measurement": "relative abundance", "result": 1.11}
